{"data": "Published values of several laboratories", "note": "Each line is one published result; not all experiments were run side by side. ± marks the error that the study gave.", "sequence of UniProt Q04206 (whole entry, looked up)": "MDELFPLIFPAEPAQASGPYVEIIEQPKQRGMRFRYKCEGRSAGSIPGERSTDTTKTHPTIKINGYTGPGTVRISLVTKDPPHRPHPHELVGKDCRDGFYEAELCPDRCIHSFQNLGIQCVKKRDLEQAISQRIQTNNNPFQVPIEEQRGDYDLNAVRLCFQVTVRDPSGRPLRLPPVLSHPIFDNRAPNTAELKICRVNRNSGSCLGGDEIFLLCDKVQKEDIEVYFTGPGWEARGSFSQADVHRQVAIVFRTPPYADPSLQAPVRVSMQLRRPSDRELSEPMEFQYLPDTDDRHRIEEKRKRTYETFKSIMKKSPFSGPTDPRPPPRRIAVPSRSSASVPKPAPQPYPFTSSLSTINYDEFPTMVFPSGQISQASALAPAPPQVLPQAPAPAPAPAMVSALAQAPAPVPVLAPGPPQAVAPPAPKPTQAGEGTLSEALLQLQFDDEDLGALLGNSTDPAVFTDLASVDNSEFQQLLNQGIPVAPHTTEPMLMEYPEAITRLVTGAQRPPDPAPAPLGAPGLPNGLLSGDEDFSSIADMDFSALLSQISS", "sequence of UniProt P49116 (whole entry, looked up)": "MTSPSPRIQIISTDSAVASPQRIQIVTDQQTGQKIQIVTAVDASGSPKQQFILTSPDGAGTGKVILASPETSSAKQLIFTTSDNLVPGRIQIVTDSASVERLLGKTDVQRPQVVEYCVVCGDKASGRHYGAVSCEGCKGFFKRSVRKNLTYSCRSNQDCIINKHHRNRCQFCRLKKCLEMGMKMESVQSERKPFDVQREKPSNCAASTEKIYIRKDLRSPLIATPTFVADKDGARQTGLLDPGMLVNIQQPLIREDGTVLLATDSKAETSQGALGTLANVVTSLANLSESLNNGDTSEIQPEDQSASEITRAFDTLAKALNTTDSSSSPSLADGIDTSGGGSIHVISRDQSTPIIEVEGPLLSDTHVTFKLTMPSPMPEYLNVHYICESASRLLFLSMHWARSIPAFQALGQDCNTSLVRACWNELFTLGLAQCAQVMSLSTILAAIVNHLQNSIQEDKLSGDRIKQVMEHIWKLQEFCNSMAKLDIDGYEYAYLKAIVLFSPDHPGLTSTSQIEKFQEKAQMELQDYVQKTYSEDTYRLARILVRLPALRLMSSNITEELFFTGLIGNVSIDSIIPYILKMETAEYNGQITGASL", "sequence of UniProt P61981 (whole entry, looked up)": "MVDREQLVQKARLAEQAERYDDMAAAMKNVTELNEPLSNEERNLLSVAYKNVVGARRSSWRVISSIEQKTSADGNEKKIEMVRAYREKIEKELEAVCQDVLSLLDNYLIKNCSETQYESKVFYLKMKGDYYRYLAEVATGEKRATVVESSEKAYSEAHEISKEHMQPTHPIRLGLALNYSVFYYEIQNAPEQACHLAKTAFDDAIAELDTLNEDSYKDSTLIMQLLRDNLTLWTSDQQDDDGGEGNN"}
{"Compound": "Cn1cc(Nc2nc(N)nc(-c3cccc(-n4ccc5cc(C6CC6)cc(F)c5c4=O)c3CO)n2)cn1", "system": "healthy humans, fed", "conditions": "oral tablet, 150 mg twice daily (multiple dose), 14 (unit not given)", "how to read": "relative to: subjects", "measurement": "drug-related nausea incidence", "result": "0%"}
{"Compound": "COc1ccc2c(=O)n(C)c(-c3ccccc3)nc2c1", "system": "Sprague-Dawley rat, male, stomach", "conditions": "oral, 30 mg/kg, 2 h", "how to read": "relative to: stomach over plasma", "measurement": "tissue/plasma ratio", "result": 74.9}
{"Compound": "CCN1/C(=C/C(C)=O)Sc2ccc(F)cc21", "system": "cynomolgus monkey", "conditions": "oral, 30 mg/kg, 4 h post-dose", "measurement": "mean blood pressure", "result": "87 ± 5 mmHg"}
{"Compound": "O=C(O)CNC(=O)c1ccc(O)cc1", "system": "human plasma", "conditions": "median", "measurement": "plasma concentration", "result": "6040 nM"}
{"Compound": "O=C([O-])c1ccccc1O.[Na+]", "target or system": "Nuclear receptor subfamily 2 group C member 2, ligand-binding domain (Homo sapiens, UniProt P49116)", "test": "SPR imaging", "measurement": "Kd", "result": "15.7 nM"}
{"Compound": "CCn1cc(C(=O)O)c(=O)c2ccc(C)nc21", "test": "starch gel membrane permeability", "system": "Gram-negative envelope surrogate", "conditions": "200 µM, 10 min, pH 7.4", "measurement": "amount permeated", "result": "1.24 nmol"}
{"Compound": "CC(Oc1ccc(O)cc1)C(=O)O (centres unmarked)", "system": "human plasma", "conditions": "median", "measurement": "plasma concentration", "result": "342 nM"}
{"Compound": "CCc1nc(C(N)=O)c(Nc2ccc(N3CCC(N4CCN(C)CC4)CC3)c(OC)c2)nc1NC1CCOCC1", "test": "LC-MS/MS", "system": "relapsed/refractory AML patients, plasma", "conditions": "oral, 200 mg once daily, cycle 1 day 15, median, from accumulation ratio", "measurement": "t1/2", "result": "5.92 days"}
{"Compound": "CC[C@@](O)(c1cnc(C(F)(F)F)c(Cl)c1)c1c2ccn(C3CC3)c(=O)c2nn1C", "system": "rat Sprague-Dawley male, plasma", "conditions": "intravenous, 1 mg/kg", "measurement": "CL", "result": "1.94 ± 0.202 mL/min/kg"}
{"Compound": "CCc1nc(C(N)=O)c(Nc2ccc(N3CCC(N4CCN(C)CC4)CC3)c(OC)c2)nc1NC1CCOCC1", "system": "Japanese patients, plasma", "conditions": "oral, 80 mg, cycle 0 day -2, single dose, median", "measurement": "Cmax", "result": "65.6 ng/mL"}
{"Compound": "Cc1ccc([C@@H]2O[C@H](CO)[C@@H](O)[C@H](O)[C@H]2O)cc1Cc1ccc(-c2ccc(F)cc2)s1", "system": "Japanese type 2 diabetes patients", "conditions": "400 mg, day 2, 24 h urine collection", "how to read": "relative to: baseline", "measurement": "urinary potassium excretion change", "result": "-4.74 mEq"}
{"Compound": "NC1(C(=O)N[C@@H](CCO)c2ccc(Cl)cc2)CCN(c2nc[nH]c3nccc2-3)CC1", "system": "metastatic CRPC patients", "conditions": "400 mg b.i.d., grade 3 to 4, treatment-related, together with: enzalutamide 160 mg daily", "measurement": "incidence of Nausea", "result": "0%"}
{"Compound": "[H]/N=C(/N)N[C@H]1[C@H](O)[C@@H](O)[C@H](O[C@@H]2O[C@@H](C)[C@](O)(C=O)[C@H]2O[C@@H]2O[C@@H](CO)[C@H](O)[C@@H](O)[C@@H]2NC)[C@@H](N/C(N)=N\\[H])[C@@H]1O", "test": "starch gel membrane permeability", "system": "Gram-negative envelope surrogate", "conditions": "200 µM, 20 min, pH 7.4", "measurement": "amount permeated", "result": "0.27 nmol"}
{"Compound": "CN(C)c1ccc(C(=O)NCCCCCC(=O)NO)cc1", "target or system": "OCI-Ly1", "conditions": "0.5 µM, 120 h", "measurement": "viability", "result": "144%"}
{"Compound": "Cc1nc2cccc(OCC(C)(C)C(=O)NC(C)C)c2c(N)c1C(=O)O", "system": "male Swiss albino CD-1 mouse, bone marrow", "conditions": "oral, 500 mg/kg, 36 h", "measurement": "micronucleated NCE per 2000 PCE", "result": 1.1}
{"Compound": "Cc1cc(Nc2cc3ncccc3c(N[C@@H]3C[C@H]4CC[C@@H](C3)N4CCC#N)n2)n[nH]1", "system": "human", "conditions": "100 mg, day 1", "measurement": "AUC(0-24)", "result": "13.2 ng·h/mL"}
{"Compound": "Cc1nc(-c2ccc(OCC(C)C)c(C#N)c2)sc1C(=O)O", "system": "healthy Chinese subjects", "conditions": "oral, 40 mg, fed", "measurement": "subjects with abnormal hepatic function", "result": "2.5%"}
{"Compound": "COc1cc(C=CC(=O)O)ccc1O[C@@H]1O[C@H](C(=O)O)[C@@H](O)[C@H](O)[C@H]1O", "system": "human plasma", "conditions": "median", "measurement": "plasma concentration", "result": "2360 nM"}
{"Compound": "COc1cccc(CNC(=O)c2ccc(C=O)cc2)c1", "target or system": "YWHAG/RELA, phospho-Ser45 p65 peptide (Homo sapiens, UniProt P61981+Q04206)", "test": "ternary complex formation, stabilizer, fluorescence anisotropy", "measurement": "EC50", "result": "> 1 mM"}
{"Compound": "CCO[C@H]1CCN(Cc2c(OC)cc(C)c3[nH]ccc23)[C@H](c2ccc(C(=O)O)cc2)C1", "system": "PNH patients, active haemolysis", "conditions": "oral, 200 mg, 8 weeks, treatment", "measurement": "incidence of dry throat", "result": "0%"}
{"Compound": "CC(C)(C(=O)N1CCOc2c(C#N)cncc2C1)C(F)F", "system": "human, both sexes", "conditions": "oral, 20 mg single dose", "measurement": "subjects with fatigue TEAE", "result": "0%"}
{"Compound": "Nc1ncnc2c1ncn2[C@@H]1O[C@H](C[C@@H](N)CC[C@H](N)C(=O)O)[C@@H](O)[C@H]1O", "target or system": "OCI-Ly1", "conditions": "0.1 µM, 120 h", "measurement": "viability", "result": "113%"}
{"Compound": "COc1ccc2nc([S+]([O-])Cc3ncc(CO)c(OC)c3C)[nH]c2c1 (centres unmarked)", "system": "human, dried plasma spots", "conditions": "2 h, together with: rifampicin pretreatment", "how to read": "relative to: induced over baseline", "measurement": "R/S enantiomer ratio fold change", "result": 0.01}
